Experimental data collected from several papers.
Each numbered part is a random draw from the data of one study; scales do not carry over between parts. Changes are numbered by the printed parent chain.

Sample 1
Target: RNA binding protein fox-1 homolog 2, RRM domain, GST-SBP tag (RBFOX2, Homo sapiens, UniProt O43251-10, residues 100-194)
Method: RNA Bind-n-Seq
Form: RNA
Medium: in vitro
Concentration: 365 nM
Setting: natural RNA segment, single round, ends assumed
Baseline: no-protein control
Reading: higher = stronger binding
All sequences stand within: GGGAGUUCUACAGUCCGACGAUC … UGGAAUUCUCGGGUGCCAA
Target sequence (chain): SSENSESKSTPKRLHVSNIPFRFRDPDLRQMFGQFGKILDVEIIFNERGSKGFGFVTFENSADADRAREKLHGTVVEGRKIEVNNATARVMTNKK
Oligonucleotide	RBNS enrichment (R)
GGGAACACACAAAGAAUUACACAACGUUUUCCUCAAGAAAAUGGUACAAAACACAACCGAGGAGCGUAUACAGUUGAAAACAUUUUUGUUUUGAUUGGAAGGCAGAUUAU	0.306
GGAGACUUCAUUAUGUUAAUGAACGAGAUAAGAAGAAAAUGGCGCUCAUUGUGGCCUUGUUGAGUUAUGUUGUGUUUGUUUAACAUCUCUGAUGCUCUGUUACUAGAAUU	0.549
UAUAGUGGCUUUAUCCUGACAUAGGAAAGUUCAGCUGCAGGGGAGGAGGAGGAGACAGUCUUCCUCUUUAAGUUACAGAGAGCCGUAAGCUAAAGGACCUGCCUAGGAUU	0.309
UCAAAAUAUAGAUUAAUUGGCUCAGCUUUAAUACCUUUCUAGGAGGUGUCACAAUGUAGGGUACCAAGGGUUGGAUUGUGAUGGGGCAUGGUCGUACACUGCUCAUUGUG	0.526
GACAGACCAUAUGUCCCACCAGCUGGGGAAUCUGACAAGAGGACAUAGGUGGCACUCUUUUUUUAAAGCUAUUUAUUGUAUCUAUUUUUAAAUAAAAUUGCCCAUCCUCA	0.559
GAAAACCCCUUUCGGGAGAAGAAGUUCUUCUGCGCCAUCCUUUAAGUCUCUGAGAGGAGGCUGAAGAGUGUUGGGGCUCCUGGGACAUACAUGUAGAGUUCCUAGCAAAG	0.236
GAGGAAAUAUUUUGUAUUGUAUAUUACAAUGAUCACUGGCUGAAAAUAUUGUUUUACAAUAGUUCUAUGGGGGUGAGUUUUUUGUUGUUAUUAAACAAACACUUUAGAUA	3.66
AAAAACCAAUACAGUAUAACAACUAUUUACAUAGUGCUUACAUUGUAUUAGGUGUUAUAAGCAAUCUAGAGAUGAUUUAGCAAGUAUACAGGAGGAUGUGCCUAGGUUAU	0.471

Sample 2
Target: Eukaryotic initiation factor 4A-I (EIF4A1, Homo sapiens, UniProt P60842, residues 1-406, full length assumed)
UniProt P60842, sequence (whole entry, looked up): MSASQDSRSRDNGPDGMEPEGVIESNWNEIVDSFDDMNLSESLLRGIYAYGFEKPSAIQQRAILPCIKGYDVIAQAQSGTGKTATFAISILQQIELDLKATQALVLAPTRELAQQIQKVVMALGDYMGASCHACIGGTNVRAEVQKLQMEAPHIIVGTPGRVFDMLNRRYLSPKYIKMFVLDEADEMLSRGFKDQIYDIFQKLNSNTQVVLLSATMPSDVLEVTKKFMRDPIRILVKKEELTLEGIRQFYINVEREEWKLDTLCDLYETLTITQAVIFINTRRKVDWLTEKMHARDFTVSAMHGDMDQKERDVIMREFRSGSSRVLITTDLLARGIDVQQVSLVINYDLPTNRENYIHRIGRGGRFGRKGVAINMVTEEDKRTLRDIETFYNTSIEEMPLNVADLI
Method: RNA Bind-n-Seq
Form: RNA
Medium: in vitro
Concentration: 90 pmol
Setting: 4-mer, random 30-nt RNA, single round
With: 3 µM iPr-DMDA-PatA, 2 mM ADP, 2 mM phosphate
Baseline: input library
Reading: higher = stronger binding
Oligonucleotide	4-mer enrichment [fold]
UACA	1.19
GGGU	0.673
UUUA	1.25
UCGG	0.777
UCAC	1.08
CUAA	1.21
GGGG	0.496
ACUU	1.11
UUGC	0.838
AUCC	1.13
ACAG	1.09
AGCG	0.891
GACC	1.09
GGAU	0.945
UCAA	1.22
CCGC	0.752
CCAU	0.973

Sample 3
Target: CCND1, cyclin fold, Cln2 fusion (human)
Method: yeast growth competition, sequencing
Medium: yeast
Setting: weak parent motif
Baseline: not given
Reading: higher = stronger binding
Parent: CDC6 docking peptide (human); TLKGRRLVFDNQL; partner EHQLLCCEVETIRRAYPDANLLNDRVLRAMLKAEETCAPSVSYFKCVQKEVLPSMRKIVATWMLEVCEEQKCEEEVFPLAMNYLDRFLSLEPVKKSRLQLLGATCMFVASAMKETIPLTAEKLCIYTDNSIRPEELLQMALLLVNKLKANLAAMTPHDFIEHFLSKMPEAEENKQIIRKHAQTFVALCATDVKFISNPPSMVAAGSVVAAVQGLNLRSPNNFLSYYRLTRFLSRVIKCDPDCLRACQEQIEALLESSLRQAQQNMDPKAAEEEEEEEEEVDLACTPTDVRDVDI
Change	normalised enrichment score
TLKGRRLVFDEQL [N11E]	0.807
TLKGRRLVQDNQL [F9Q]	-0.118
TLKGRHLVFDNQL [R6H]	0.315
TLKGRRLVFDNQY [L13Y]	0.339
TLKGVRLVFDNQL [R5V]	0.637
TLKGRRLVFDGQL [N11G]	0.376
TLKGRVLVFDNQL [R6V]	1.54
TLKGRNLVFDNQL [R6N]	0.32
TLKGRRLVFLNQL [D10L]	-0.0138
TLEGRRLVFDNQL [K3E]	0.665
TLKGRRLVFSNQL [D10S]	0.413
TLKGRRLVWDNQL [F9W]	0.593
TLKGRRLVGDNQL [F9G]	-0.444
TLKGRRLVFQNQL [D10Q]	-0.406
TLKGRRLVFDTQL [N11T]	0.765
TLKGFRLVFDNQL [R5F]	0.682
TVKGRRLVFDNQL [L2V]	0.817
TLKGRGLVFDNQL [R6G]	-0.0581
TLVGRRLVFDNQL [K3V]	1.69
TLKGRRLTFDNQL [V8T]	0.509
TLKGGRLVFDNQL [R5G]	0.122
TLKGRRLVFHNQL [D10H]	-0.43

Sample 4
Target: Interferon regulatory factor 3, full length, phosphomimetic (IRF3, Homo sapiens, UniProt Q14653, residues 1-427, S386D/S396D/S398D/S402D/T404D/S405D)
Method: protein-binding microarray
Form: double-stranded DNA, one strand shown
Medium: in vitro
Concentration: 2540 nM top
Setting: 60-bp whole probe
With: salmon DNA 0.4 mg/ml
Baseline: random background probes
Reading: higher = stronger binding
All sequences stand within: GCCTAGCAC … GTCTTGATTCGCTTGACGCTGCTG
Target sequence (chain): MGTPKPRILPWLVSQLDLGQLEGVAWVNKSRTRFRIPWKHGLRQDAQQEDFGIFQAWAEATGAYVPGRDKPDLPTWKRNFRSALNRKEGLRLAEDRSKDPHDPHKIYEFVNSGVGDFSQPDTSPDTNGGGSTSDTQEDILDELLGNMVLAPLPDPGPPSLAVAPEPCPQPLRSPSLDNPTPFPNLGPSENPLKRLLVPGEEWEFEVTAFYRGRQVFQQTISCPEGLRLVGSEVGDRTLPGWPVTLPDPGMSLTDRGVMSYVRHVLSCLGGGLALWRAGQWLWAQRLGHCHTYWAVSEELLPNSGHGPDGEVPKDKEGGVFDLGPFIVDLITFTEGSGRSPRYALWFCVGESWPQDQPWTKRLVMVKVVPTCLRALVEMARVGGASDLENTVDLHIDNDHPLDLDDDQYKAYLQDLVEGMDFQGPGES
Oligonucleotide	fitted relative affinity [z-score]
GACGATTTCGGGACCGGAGACGTGCTA	1.76
GAAGGACTGGGTCTCGGGACGTGCTAG	-1.07
GACGGAGTGGGTTTCGGGACGTGCTAG	1.2
TCATCTATTGCTTTCTCACTGTGCTAG	0.939
AACGGTATCGGGTATCGGGACGTGCTA	1.97
TTAGGACGGGGGACTGGGTTAGTGCTA	-0.432
GACGATCTCAGTATCAAGACGTGCTAG	0.74
TTAGTACTGGGTCTCGGTTAGTGCTAG	-0.407
CACTATTTAAGACCTATGCACGTGCTA	0.459
TCACAACTTTTTTTAATACTGTGCTAG	0.43
TTAGGTCACCTTTTCCTTTAGTGCTAG	3.08
GACAGTTTCGACACTGGGGACGTGCTA	2.89
TTAAGTATCGGTTTCGGTTAGTGCTAG	8.87
TTAGGTGCCGGTTTCGGTTAGTGCTAG	5.31
TTAGGTATCAGGACTGGGTTAGTGCTA	1.67
TCAGCTTTGTGCCTAGCACTGTGCTAG	-0.327
GACGAACTGAGAATCGAGACGTGCTAG	-0.0703
TTAGAACTGAGTATCGATTTGTGCTAG	0.772
GACGGTCTCCTTCTCTTGACGTGCTAG	4.27

Sample 5
Target: ABI1, truncated, D143A, DHFR fusion (Arabidopsis thaliana)
Method: DHFR PCA, deep sequencing
Medium: yeast
Setting: methotrexate growth selection, single substitutions
With: (+)-ABA 0.032 µM
Baseline: wild-type fitted maximum
Reading: higher = stronger binding
Parent: PYL1, truncated, DHFR fusion (Arabidopsis thaliana); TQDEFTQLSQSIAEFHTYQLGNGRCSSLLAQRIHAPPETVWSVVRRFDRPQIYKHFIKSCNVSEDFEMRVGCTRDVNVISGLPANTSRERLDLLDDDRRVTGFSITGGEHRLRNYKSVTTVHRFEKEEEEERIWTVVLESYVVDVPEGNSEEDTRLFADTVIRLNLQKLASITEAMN; partner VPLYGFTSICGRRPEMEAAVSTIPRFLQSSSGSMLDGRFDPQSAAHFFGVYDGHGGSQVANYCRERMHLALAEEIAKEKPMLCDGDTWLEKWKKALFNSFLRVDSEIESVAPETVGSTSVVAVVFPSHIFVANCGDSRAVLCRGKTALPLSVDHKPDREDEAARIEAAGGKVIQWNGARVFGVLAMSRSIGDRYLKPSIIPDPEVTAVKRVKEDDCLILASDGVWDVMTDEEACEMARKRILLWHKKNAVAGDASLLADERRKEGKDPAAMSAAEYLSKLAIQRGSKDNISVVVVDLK
Change	relative binding score
D3M	19.4%
E131T	51.1%
G102P	2.33%
I162V	39.2%
L20W	3.18%
D144E	2.27%
S80I	22%
S59Q	-2.08%
N165M	2.48%
P83D	2.47%
V78S	9.63%
I105R	1.46%

Some of these lines once more (sample 1):
Oligonucleotide	RBNS enrichment (R)
GACAGACCAUAUGUCCCACCAGCUGGGGAAUCUGACAAGAGGACAUAGGUGGCACUCUUUUUUUAAAGCUAUUUAUUGUAUCUAUUUUUAAAUAAAAUUGCCCAUCCUCA	0.559
GAAAACCCCUUUCGGGAGAAGAAGUUCUUCUGCGCCAUCCUUUAAGUCUCUGAGAGGAGGCUGAAGAGUGUUGGGGCUCCUGGGACAUACAUGUAGAGUUCCUAGCAAAG	0.236
GGGAACACACAAAGAAUUACACAACGUUUUCCUCAAGAAAAUGGUACAAAACACAACCGAGGAGCGUAUACAGUUGAAAACAUUUUUGUUUUGAUUGGAAGGCAGAUUAU	0.306
AAAAACCAAUACAGUAUAACAACUAUUUACAUAGUGCUUACAUUGUAUUAGGUGUUAUAAGCAAUCUAGAGAUGAUUUAGCAAGUAUACAGGAGGAUGUGCCUAGGUUAU	0.471
GAGGAAAUAUUUUGUAUUGUAUAUUACAAUGAUCACUGGCUGAAAAUAUUGUUUUACAAUAGUUCUAUGGGGGUGAGUUUUUUGUUGUUAUUAAACAAACACUUUAGAUA	3.66
UCAAAAUAUAGAUUAAUUGGCUCAGCUUUAAUACCUUUCUAGGAGGUGUCACAAUGUAGGGUACCAAGGGUUGGAUUGUGAUGGGGCAUGGUCGUACACUGCUCAUUGUG	0.526
GGAGACUUCAUUAUGUUAAUGAACGAGAUAAGAAGAAAAUGGCGCUCAUUGUGGCCUUGUUGAGUUAUGUUGUGUUUGUUUAACAUCUCUGAUGCUCUGUUACUAGAAUU	0.549
UAUAGUGGCUUUAUCCUGACAUAGGAAAGUUCAGCUGCAGGGGAGGAGGAGGAGACAGUCUUCCUCUUUAAGUUACAGAGAGCCGUAAGCUAAAGGACCUGCCUAGGAUU	0.309
